Experimental data of several laboratories.
Numbered parts are unrelated; each lists some results of a single study. Positions count from the first letter of the parent shown.

Sample 1 — method: DHFR PCA, deep sequencing; sample: yeast; added: (+)-ABA 0.032 µM; baseline: wild-type fitted maximum; reading: higher = stronger binding; endpoint: relative binding score
Target: ABI1, truncated, D143A, DHFR fusion (Arabidopsis thaliana)
Setting: methotrexate growth selection, single substitutions
Parent: PYL1, truncated, DHFR fusion (Arabidopsis thaliana); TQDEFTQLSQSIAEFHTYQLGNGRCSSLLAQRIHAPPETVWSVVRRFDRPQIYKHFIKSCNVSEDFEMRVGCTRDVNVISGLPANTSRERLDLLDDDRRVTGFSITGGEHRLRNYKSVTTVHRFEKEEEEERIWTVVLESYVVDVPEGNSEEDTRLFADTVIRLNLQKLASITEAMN
S9V: 23.6%
D159L: -9.08%
V143N: -4.38%

Sample 2 — target: DBP, bZIP domain (human); method: DHFR protein complementation; sample: yeast; baseline: wild-type JUN-FOS pair; reading: higher = stronger binding; endpoint: binding fitness
Setting: single substitutions, most at no-binding floor
Parent: JUN, bZIP domain (human); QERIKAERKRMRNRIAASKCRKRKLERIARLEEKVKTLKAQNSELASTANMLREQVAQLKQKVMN; partner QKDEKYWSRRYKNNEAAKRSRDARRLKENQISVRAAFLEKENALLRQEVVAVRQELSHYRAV
K39W: -1.46 natural log
E32D: -1.59 natural log
V56S: -1.44 natural log
A57G: -1.43 natural log

Sample 3 — method: RNA Bind-n-Seq; form: RNA; sample: in vitro; tested at: not given; baseline: input RNA pool; reading: higher = stronger binding; endpoint: bound/input enrichment
Target: RING finger protein unkempt homolog, zinc fingers 1-6, GST-SBP tag (UNK, Homo sapiens, UniProt Q9C0B0, residues 30-357)
Chain of UniProt Q9C0B0 (30-357, looked up): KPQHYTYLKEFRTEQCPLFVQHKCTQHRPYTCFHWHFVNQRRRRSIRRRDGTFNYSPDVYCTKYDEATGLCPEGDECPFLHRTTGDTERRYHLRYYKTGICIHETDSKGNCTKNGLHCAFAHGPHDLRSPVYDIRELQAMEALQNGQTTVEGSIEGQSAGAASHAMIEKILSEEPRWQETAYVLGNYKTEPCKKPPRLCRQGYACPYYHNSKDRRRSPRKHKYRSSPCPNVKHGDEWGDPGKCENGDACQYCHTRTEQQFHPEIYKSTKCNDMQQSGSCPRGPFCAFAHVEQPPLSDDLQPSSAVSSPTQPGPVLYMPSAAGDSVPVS
Setting: RNA with constant flanks, human and mouse sites, ends assumed
GGGAGUUCUACAGUCCGACGAUCUCCUGUGUUAGGGGGGGUCUGGCUUUUUCUGGAGGUAACUAGGGUGAUGAAAACGUAUCCUUAGGCGUGGUUAUGGCCGUCUUGGCCACCUGUACACCACUUGCCAAUGCAAGGACUUGUCAACAGAGGAUUGAGCAUCA: 0.539 ratio
GGGAGUUCUACAGUCCGACGAUCACAAUCAUGCCUGCUUUUAUCUUUGAACAUAUUAUUAAGCGGAUGGCACCAAGCAUUAUGAAAAGCCUAAUGGACCACACCAUUCCUGAGGUUUAAAAUUCACGGCACCAUGGAAAUGUACAACAGAGGAUUGAGCAUCA: 0.161 ratio
GGGAGUUCUACAGUCCGACGAUCUACCCAGAAGGAGAGGGUGAGACCUAUUACUAUGAGUAUCCAUAUUAUGAAGACCCUGAAGACCCGGGAAAGGAGCCUGCCCCUACUCAGAAGCCAGUGGAAGCUGCCAGAGAAACCACACAACAGAGGAUUGAGCAUCA: 0.256 ratio
GGGAGUUCUACAGUCCGACGAUCGAUUUAGUAAAUGAAAUUUGACCAAAUGGAAGAAUCAUGUUAGUUCUGACCUCAAUACUAUAGUAACUUUUAGGCGUGGGUGUAGAAGUUUAUAGGUUUCUAUUGACAGUUAUUGUAAAUCAACAGAGGAUUGAGCAUCA: 4.69 ratio

Other studies, line by line
PhoQ, residues 284 288 289 292 302 303 NSMLDC — fold induction (PhoP, residues 12 14 15 18 19 NNFVT (Escherichia coli, UniProt P23836); Sort-seq, measured: YFP reporter; E. coli; PhoQ-PhoP variant library, added: 10 µM Mg2+; baseline: high Mg2+ state, higher = stronger signaling): 9.96

Some of these lines once more (sample 1):
S9V: 23.6%
D159L: -9.08%
